Assay results gathered from unrelated publications.
Each line is one published result; not all experiments were run side by side. ± gives the spread as reported.
Target: Alpha-glucosidase MAL12 (MAL12, Saccharomyces cerevisiae S288c, UniProt P53341)
Chain of UniProt P53341 (whole entry, looked up): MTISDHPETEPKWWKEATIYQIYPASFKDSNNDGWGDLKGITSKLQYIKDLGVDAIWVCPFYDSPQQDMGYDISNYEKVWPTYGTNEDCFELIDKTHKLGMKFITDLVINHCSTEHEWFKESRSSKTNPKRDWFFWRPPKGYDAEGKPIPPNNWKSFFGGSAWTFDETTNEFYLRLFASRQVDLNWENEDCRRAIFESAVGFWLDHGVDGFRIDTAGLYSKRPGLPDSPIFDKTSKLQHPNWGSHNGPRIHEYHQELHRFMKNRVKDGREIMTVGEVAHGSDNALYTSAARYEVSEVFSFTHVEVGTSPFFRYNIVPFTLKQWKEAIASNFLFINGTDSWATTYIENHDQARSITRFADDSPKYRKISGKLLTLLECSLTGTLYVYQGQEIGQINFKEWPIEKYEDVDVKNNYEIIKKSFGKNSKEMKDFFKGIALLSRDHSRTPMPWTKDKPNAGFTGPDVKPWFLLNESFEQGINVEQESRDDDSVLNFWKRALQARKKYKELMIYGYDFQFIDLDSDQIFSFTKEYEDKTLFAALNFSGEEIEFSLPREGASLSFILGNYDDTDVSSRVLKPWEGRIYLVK
Effect on: enzyme activity
Action: inhibitor

With `Cc1nc2ccccc2c(=O)n1N` the IC50 was 59.9 ± 2.12 µM (Saccharomyces cerevisiae; with: 4-nitrophenyl glucopyranoside).
The IC50 of `COc1cc(C(c2c(O)c3ccccc3oc2=O)c2c(O)c3ccccc3oc2=O)ccc1OCc1cn(CC(=O)Nc2ccc(Cl)cc2Cl)nn1` is reported as 6 µM.
`COc1ccc(-c2c(C(F)(F)F)oc3c(Cn4ccnc4)c(O)ccc3c2=O)cc1` gave an IC50 of 20 ± 2 µM.
`Cc1nc2ccc(Br)cc2c(=O)n1N` gave an IC50 of 23.6 ± 1.41 µM (Saccharomyces cerevisiae; with: 4-nitrophenyl glucopyranoside).
With `CC(C)(COC(=O)/C=C/c1ccc(Br)cc1)CC1=C(O)C(=O)c2ccccc2C1=O` the IC50 was 26.3 µM.
For `COc1cc(C(c2c(O)c3ccccc3oc2=O)c2c(O)c3ccccc3oc2=O)ccc1OCc1cn(CC(=O)Nc2ccccc2Cl)nn1`, the IC50 was 24.3 µM.
`CC(C)(COC(=O)/C=C/c1c(Cl)cccc1Cl)CC1=C(O)C(=O)c2ccccc2C1=O` has an IC50 of 19.3 µM.
For `COc1ccc(-c2c(C(F)(F)F)oc3c(Cn4nc(C)cc4C)c(O)ccc3c2=O)cc1`, the IC50 was 21.2 ± 0.66 µM.

A few entries again:
The IC50 of `COc1cc(C(c2c(O)c3ccccc3oc2=O)c2c(O)c3ccccc3oc2=O)ccc1OCc1cn(CC(=O)Nc2ccc(Cl)cc2Cl)nn1` is reported as 6 µM.
